Published values pooled from the literature.
Compare with care: the assays were run in different laboratories. Values joined by “and” are separate records of one study, mostly repeats; a detail may differ. Numbers after ± are the reported error.

SMILES | test | system | setting | scale | quantity | result
C=C(NC(=O)c1csc(-c2nc3c(cc2O)-c2nc(cs2)C(=O)NC(C(C)O)C(=O)NC(=C(C)OC)c2nc(cs2)C(=O)NC2c4nc(cs4)C(=O)NC(COC(=O)c4c5c6c(cccc6n4O)COC(=O)C(OC4CC(C)(O)C(N(C)C)C(C)O4)C2OC5)c2nc-3cs2)n1)C(N)=O (centres unmarked) |  | ICR mice, Streptococcus pneumoniae ATCC 49169 infected, immunocompromised, blood | intravenous, 4 mg/kg/day twice daily |  | Cmax | 147 ng/mL
c1cc(C2CCCCC2)ccc1-c1ccc(N2CCCC2)nc1 | liver microsome stability | mouse liver microsomes | 1 µM |  | hepatic clearance | 51 mL/min/kg
COc1cccc(OC)c1-c1cc(C(=O)NC2(C(=O)O)C3CC4CC(C3)CC2C4)nn1-c1ccc(C(=O)N(C)CCOCCN(C)C(=O)[C@H](CCCCNC(=O)[C@H](CC(C)C)NC(=O)C2OC2C(=O)O)NC(=O)CN2CCN(CC(=O)[O-])CCN(CC(=O)[O-])CCN(CC(=O)[O-])CC2)cc1C(C)C.[177Lu+3] (mixture of isomers) |  | mouse, HT-29 xenograft | 4 h post injection, biodistribution | baseline: tumour over kidney uptake | tumour-to-kidney ratio | 0.31
O=C(Nc1cnccc1-c1ccc([18F])nc1)c1ccnc(NC(=O)C2CC2)c1 |  | FVB/NJ mice (both sexes), cortex | intravenous, dose not given, 120 min |  | SUV | 0.017
O=C(NC1CCOCC1)c1ccc([C@H]2[C@@H](F)[C@@H](F)C[C@@H](F)[C@H]2F)cc1 | hepatocyte stability | cryopreserved rat hepatocytes | 1 µM |  | hepatic clearance | 10 mL/min/kg
C/C(N)=N/C(=N\S(=O)(=O)c1ccc(C(F)(F)F)cc1)N1C[C@H](c2ccccc2)C(c2ccc(Cl)cc2)=N1 |  | male C57BL/6 mouse, brain | intravenous, 10 mg/kg |  | half-life | 7.5 h
CN(C)c1cccc(-c2ccc(C3CCCCC3)cc2)c1 | liver microsome stability | human liver microsomes | 1 µM, without NADPH |  | hepatic clearance | 4.2 mL/min/kg
C=CC(=O)Nc1cc(Nc2nccc(-c3c[nH]c4ccccc34)n2)c(OC)cc1N(C)CCN(C)C | storage stability | human dried blood spot | 10 d, -80 °C, LQC level |  | recovery | 100%
C=Cc1ccccc1[B-]12OC(=O)C(c3ccccc3)=N[N+]1=C(C)c1ccc(N(CC)CC)cc1O2 (centres unmarked) |  | toluene |  |  | fluorescence lifetime | 2.6 ns
C=C1C[C@]2(C(=O)OC)C=C(C(=O)Nc3cccc(C(=O)Nc4ccc(Nc5nccc(-c6cccnc6)n5)c(C)c4)c3)C(=O)[C@H]1C2 |  | Wistar rat, male, plasma | 10 µM, 15 min |  | compound remaining | 3.33% and 8.27%
COC1C=COC2(C)Oc3c(C)c(O)c4c(c3C2=O)C2=NC3(CCN(CC(C)C)CC3)NC2=C(NC(=O)C(C)=CC=CC(C)C(O)C(C)C(O)C(C)C(OC(=O)Nc2cnccn2)C1C)C4=O (centres unmarked) |  | CD-1 mouse female, plasma | oral, 10 mg/kg |  | fAUC/MIC ratio | 88.8
OC1(C(F)(F)F)CCN(c2nc(Nc3ccnc(C(F)(F)F)c3)nc(-c3cccc(C(F)(F)F)n3)n2)C1 (centres unmarked) |  | Sprague-Dawley rat, both sexes, plasma | oral gavage, 20 mg/kg |  | AUC(0-24 h) | 22300 ± 3230 ng·h/mL
Fc1ccc(OCC2CN(Cc3ncc4ccccn34)CCC2(F)F)cc1 (centres unmarked) | equilibrium dialysis | human plasma |  |  | fu | 0.004
O=C(CN1CCOCC1)Nc1ccc([C@H]2[C@@H](F)[C@@H](F)C[C@@H](F)[C@H]2F)cc1 | liver microsome stability | cynomolgus liver microsomes | 1 µM |  | hepatic clearance | 6.7 mL/min/kg
COCC1CN(C2CCN(c3cc(OC)c(Nc4ncc(Br)c(Nc5ccc6c(c5P(C)(C)=O)OCCO6)n4)cc3C)CC2)C1 |  | EGFR-mutant NSCLC patients, plasma | oral, 10 mg single dose, geometric mean |  | t1/2 | 26.7 h
O=C(Nc1ccc([C@H]2[C@@H](F)[C@@H](F)C[C@@H](F)[C@H]2F)cc1)C1CC1(F)F (some centres unmarked) | liver microsome stability | mouse liver microsomes | 1 µM |  | hepatic clearance | 28 mL/min/kg
O=C(N1CCCCC1)C12CC(c3ccccc3)(C1)C2(F)F | metabolic stability | human, liver microsomes | 2 µM, 7 min, pH 7.4 |  | compound remaining | 98%
